Measurements gathered from unrelated publications.
Each numbered part is a random draw from the data of one study; scales do not carry over between parts. Positions count from the first letter of the parent shown.

Series 1
Target: RNA binding protein fox-1 homolog 2, RRM domain, GST-SBP tag (RBFOX2, Homo sapiens, UniProt O43251-10, residues 100-194)
Method: RNA Bind-n-Seq
Molecule type: RNA
Matrix: in vitro
Tested at: 365 nM
Notes: natural RNA segment, single round, ends assumed
Relative to: no-protein control
Reading: higher = stronger binding
Shared flanks, not repeated: GGGAGUUCUACAGUCCGACGAUC … UGGAAUUCUCGGGUGCCAA
Target sequence (chain): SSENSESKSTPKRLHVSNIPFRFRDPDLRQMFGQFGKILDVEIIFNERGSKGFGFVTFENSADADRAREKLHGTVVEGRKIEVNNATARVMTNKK
Oligonucleotide	RBNS enrichment (R)
UUUUAACUUCGUGUUCUGUAUCUCCUCAGCCAUGUAUCUUAAAUAUAUUUUGUCAUCAUAAUCUUUAUGGUGGGGGCAGACUUUGCACUUACUGCAGUGCAACACUUGCA	1.08
UAUACAGUUUUCCUUAAUUUGUUGACAUAUAAAUGGUAAAUUAUAUUUAGGCUUAUCCUGUUUUGAAAUGAUGGUAGUCAUCUUUCUUACUGCUACUUUCAUGUUGCUUU	0.233
AUACUCCCUGUGGGCAUUUUUAAAGAUGAUCAUUAAUCUAUAAGGAAUUUGCUAAGCUUUCUCUUGAAUUUGAGCCAGUGAGAAAAGCAGUCAGAAGAAUGUGAAGGAUG	0.469
CCCUUUCUUAAUAUGACUAGUGGUCUUGAUGCUAGAGUCAACUUACUCUGUUGCUGGCUUUAGCAGAGAAUAGGAGGAACCAUAUGAAAAAGAUCAGGCUUUCUGACUUC	0.36
AAGCUCUGAAGUUCUUCCUGCUGGCACCAAAUAUUAGGAUUACAAGCUGUCUCUCUGACACCAGUGGUAAAAAAGCAAGUAGAAUAGUUUCUGAGUCUGUGUUGCAGCCU	0.346
GCCAGGGAGAGGACUCAGAUUUCCUGGAGGCAAAGUCUAUCUCUGAAACUCCAUGAAGACUUUUGCAGCCAGUUCCCACCAAUAUGCCCCAGACGUGAGACAAACAAGGA	0.474
UUUUCUUUUCCUUCAGAGACCGUGACAGAGGGAGCUCUGUCAGCCGGAAGUUCAGGCCACCAGACGUAGUGAUUUGUAAGAAAUUACUGUCUCCUCAGUGAACCUCCUAG	0.302
AGGCAGUGACAGUGAACUGUAAAUACCACAUGUGAGUUUACCUGGAUCUGUGCAUUUUGUGCCUUAUUCACUCGAGUGGUAGAAGUUCCGCGGUAUGUUGAGUGUUUCCA	0.419
CCGAGUGGCUCCUGAAUUUAAGUCUGGGACGACAUCUUUUAUUUUUACAUGAAUCUUUAAACAAUUCUGUGAGCAAAGUUUGUAGCUGCUGGAUUAUUGUCUGUCUUUAU	0.928
AAAAGAUUGAUCAUCCAAAUGGCAAAUUUCUUAGAGUCCAUAACUGAUUUGAUAGAUUUUUCUUUUUAAAUAAAACUUCACAGCCUGCACAGUUGUUACGCAUACUACAU	2.02
CCUUCCUGGCCUCACAACCACCACAGUGAUUUCCUGUAGUGUCUUACACUUCCAUGUCACCACAGCGUGGAGCAUUAGAGAAAAGCCUGGAUAGACUUUUAGUUGAUAGA	0.267
UUACUGUCCUUACCCUUCAUCCAACAAACUCUGAAGCCAGUCUCUAGCUUACUGCAAGAAAAAGAAGUGUACAUAAUAUUUAAGAUGCUGAGUAUUUCAUAGGAAAGCUG	0.441

Series 2
Target: CCND2, cyclin fold, Cln2 fusion (human)
Method: yeast growth competition, sequencing
Matrix: yeast
Notes: weak parent motif
Relative to: not given
Reading: higher = stronger binding
Starting sequence: CDC25A docking peptide (human); PPHRRRLLFACSP; partner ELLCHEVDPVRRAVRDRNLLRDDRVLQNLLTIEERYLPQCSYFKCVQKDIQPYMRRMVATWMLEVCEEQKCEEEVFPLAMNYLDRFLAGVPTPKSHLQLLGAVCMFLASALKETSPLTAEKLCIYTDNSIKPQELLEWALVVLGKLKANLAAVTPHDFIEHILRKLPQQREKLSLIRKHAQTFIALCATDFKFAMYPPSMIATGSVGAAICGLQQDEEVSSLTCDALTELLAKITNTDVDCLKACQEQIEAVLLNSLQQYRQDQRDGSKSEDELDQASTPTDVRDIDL
Change	normalised enrichment score
H3D	0.57
R6Q	0.525
S12D	-0.0552
P13H	0.238
F9N	0.185
R6M	0.416
P2N	0.0799
C11T	-0.132
A10V	-0.13
R4K	0.153
R6F	-0.186
R4N	0.451
L7S	-0.0065
P2E	0.265
P2T	0.542
S12W	0.153
R5Y	-0.288
P2L	-0.112
A10H	0.0383
H3E	-0.14
P2V	-0.191
P1V	-0.0962
F9C	-0.0478
A10R	0.183
P1Q	-0.0105

Series 3
Target: ABI1, truncated, D143A, DHFR fusion (Arabidopsis thaliana)
Method: DHFR PCA, deep sequencing
Matrix: yeast
Notes: methotrexate growth selection, single substitutions
With: (+)-ABA 710 µM
Relative to: wild-type fitted maximum
Reading: higher = stronger binding
Starting sequence: PYL1, truncated, DHFR fusion (Arabidopsis thaliana); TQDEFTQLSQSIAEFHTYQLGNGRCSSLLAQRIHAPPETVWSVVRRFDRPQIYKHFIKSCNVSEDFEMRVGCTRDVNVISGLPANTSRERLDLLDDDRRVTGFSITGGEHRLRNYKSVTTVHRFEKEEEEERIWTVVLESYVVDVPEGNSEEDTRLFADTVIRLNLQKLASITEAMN
Change	relative binding score [%]
I57M	79.6
Q19P	103
S63C	107
K168D	77.2
D96S	80.2
H110F	3.48
H16F	16
E131W	87.4
I172H	97.7
K54Q	13.2
S63V	98.2
Q2R	99.4
H34K	107
V76T	85.1
I79G	88.4
G71T	60.4
H55P	101
T73Y	104
H34N	98.6
P37T	99.2
T73Q	106

Series 4
Target: Ras GTPase-activating protein-binding protein 1, RRM domain (G3BP1, Homo sapiens, UniProt Q13283)
UniProt Q13283, sequence (whole entry, looked up): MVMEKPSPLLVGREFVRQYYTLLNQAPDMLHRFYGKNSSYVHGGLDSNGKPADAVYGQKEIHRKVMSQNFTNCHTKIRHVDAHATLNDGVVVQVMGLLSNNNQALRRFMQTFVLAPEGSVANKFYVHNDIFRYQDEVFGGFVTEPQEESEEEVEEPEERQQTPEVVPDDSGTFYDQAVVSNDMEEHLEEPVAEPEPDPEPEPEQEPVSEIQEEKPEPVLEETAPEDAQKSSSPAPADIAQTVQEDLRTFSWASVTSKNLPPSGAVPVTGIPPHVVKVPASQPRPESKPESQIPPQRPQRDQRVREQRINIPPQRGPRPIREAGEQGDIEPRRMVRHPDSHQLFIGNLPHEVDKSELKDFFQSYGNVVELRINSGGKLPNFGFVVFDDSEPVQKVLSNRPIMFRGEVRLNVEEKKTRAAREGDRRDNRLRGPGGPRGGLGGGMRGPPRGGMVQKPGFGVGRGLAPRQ
Method: RNA Bind-n-Seq
Molecule type: RNA
Matrix: in vitro
Tested at: 1 µM
Notes: whole 134-nt RNA, ends assumed
With: 150 mM KCl
Relative to: input library
Reading: higher = stronger binding
Shared flanks, not repeated: GGGAGUUCUACAGUCCGACGAUC … UGGAAUUCUCGGGUGUCAAGG
Oligonucleotide	log2 enrichment
CCUCAAGUCCUGUGCUACACAUCGUAUGUACCGAAUCGGUGGUGGAAAAAGGAAAGUAUUAUGUUACGCCGUUCGGAUCUGCACUUCCAG	-0.0741
CUCAAGUCCUGUGCUACACAUCGUAUGUACCGAAUCGGGAGGGAGGGGAGGGGAAAGUAUUAUGUUACGCCGUUCGGAUCUGCACUUCCA	1.1
UCAAGUCCUGUGCUACACAUCGUAUGUACCGAAUCGGGCCGGGGCCGGGCCGGGAAAGUAUUAUGUUACGCCGUUCGGAUCUGCACUUCC	-0.687
UGGGAGGUGGAUUUUGUUUAUUUUUUUAGCUCAUUUCCAGGGGUGGGAAUUUUUUUUUAAUAUGUGUCAUGAAUAAAGUUGUUUUUAAAA	1.13
GUCCUGUGCUACACAUCGUAUGUACCGAAUCGGGGAGGGGUUUUUGGGGUUUUUGGGGAAAGUAUUAUGUUACGCCGUUCGGAUCUGCAC	0.97
CACAGACAACACGCACCCACACAGACACAGAGGGAAGGGGUUGGGAUGGGGACAGAAAGCACAGCAGGGCGGGGUAGGACCCCAGCCCCU	-0.211
CUCAAGUCCUGUGCUACACAUCGUAUGUACCGAAUCGGGGUUGGGUUGGUUGGAAAGUAUUAUGUUACGCCGUUCGGAUCUGCACUUCCA	-0.267
CAAGUCCUGUGCUACACAUCGUAUGUACCGAAUCGGGAAAGGAAAGGGGAAAGGGAAAGUAUUAUGUUACGCCGUUCGGAUCUGCACUUC	0.117
AGGAAAAUGUUUAUAGGAGGCCUUAGCUGGGACACUACAAAGAAAGAUCUGAAGGACUACUUUUCCAAAUUUGGUGAAGUUGUAGACUGC	-0.0723
UGGGAGGUGGAUUUUGUUUAUUUUUUUAGCUCAUUUCCAGGGGUGGGAAUUUUUUUUUAAUAUGUGUCAUGAAUAAAGCUGUUUUUGAAA	1.33
CACAGACAACACGCACCCACACAGACACAGAGGGAAGGGGUUGGGAUGGGGACAGGGUGCACAGCAGGGCGGGGUAGGACCCCAGCCUCU	-0.323
UCAAGUCCUGUGCUACACAUCGUAUGUACCGAAUCGGUUUGGAAAAAGGAAAGGAAAGUAUUAUGUUACGCCGUUCGGAUCUGCACUUCC	-0.157
UGUGCUACACAUCGUAUGUACCGAAUCGGGGAAAAAAAGGGAAAAAAAGGGAAAAAAAGGGGAAAGUAUUAUGUUACGCCGUUCGGAUCU	0.243
GUCCUGUGCUACACAUCGUAUGUACCGAAUCAAACCCAAACCCCCCCAAACCCCCAAAAAAGUAUUAUGUUACGCCGUUCGGAUCUGCAC	-0.172

Series 5
Target: BATF3, bZIP domain (human)
Method: DHFR protein complementation
Matrix: yeast
Notes: single substitutions, most at no-binding floor
Relative to: wild-type JUN-FOS pair
Reading: higher = stronger binding
Starting sequence: JUN, bZIP domain (human); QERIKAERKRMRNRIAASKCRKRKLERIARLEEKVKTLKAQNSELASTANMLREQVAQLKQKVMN; partner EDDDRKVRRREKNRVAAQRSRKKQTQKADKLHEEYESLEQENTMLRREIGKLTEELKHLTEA
Change	binding fitness [natural log]
E32L	0.153
E54H	0.161
V35G	-0.247
K34L	0.274
K39W	0.00632
K34C	0.215
Q41A	0.177
E33P	-0.18
E44I	0.111
L59A	0.278
A46C	0.172
M51N	0.276
A29K	0.0886
K34Y	0.0704
L59S	0.045
I28F	0.144
V35K	0.0339
L52T	-0.629
T48P	-1.01
S47C	0.212
T48K	0.21
Q58P	-0.0799
S43A	0.244

Some of these lines once more (series 4):
Oligonucleotide	log2 enrichment
UCAAGUCCUGUGCUACACAUCGUAUGUACCGAAUCGGGCCGGGGCCGGGCCGGGAAAGUAUUAUGUUACGCCGUUCGGAUCUGCACUUCC	-0.687
CAAGUCCUGUGCUACACAUCGUAUGUACCGAAUCGGGAAAGGAAAGGGGAAAGGGAAAGUAUUAUGUUACGCCGUUCGGAUCUGCACUUC	0.117
UCAAGUCCUGUGCUACACAUCGUAUGUACCGAAUCGGUUUGGAAAAAGGAAAGGAAAGUAUUAUGUUACGCCGUUCGGAUCUGCACUUCC	-0.157
AGGAAAAUGUUUAUAGGAGGCCUUAGCUGGGACACUACAAAGAAAGAUCUGAAGGACUACUUUUCCAAAUUUGGUGAAGUUGUAGACUGC	-0.0723
UGGGAGGUGGAUUUUGUUUAUUUUUUUAGCUCAUUUCCAGGGGUGGGAAUUUUUUUUUAAUAUGUGUCAUGAAUAAAGUUGUUUUUAAAA	1.13
CUCAAGUCCUGUGCUACACAUCGUAUGUACCGAAUCGGGGUUGGGUUGGUUGGAAAGUAUUAUGUUACGCCGUUCGGAUCUGCACUUCCA	-0.267
CCUCAAGUCCUGUGCUACACAUCGUAUGUACCGAAUCGGUGGUGGAAAAAGGAAAGUAUUAUGUUACGCCGUUCGGAUCUGCACUUCCAG	-0.0741
GUCCUGUGCUACACAUCGUAUGUACCGAAUCAAACCCAAACCCCCCCAAACCCCCAAAAAAGUAUUAUGUUACGCCGUUCGGAUCUGCAC	-0.172
UGUGCUACACAUCGUAUGUACCGAAUCGGGGAAAAAAAGGGAAAAAAAGGGAAAAAAAGGGGAAAGUAUUAUGUUACGCCGUUCGGAUCU	0.243
UGGGAGGUGGAUUUUGUUUAUUUUUUUAGCUCAUUUCCAGGGGUGGGAAUUUUUUUUUAAUAUGUGUCAUGAAUAAAGCUGUUUUUGAAA	1.33
CACAGACAACACGCACCCACACAGACACAGAGGGAAGGGGUUGGGAUGGGGACAGAAAGCACAGCAGGGCGGGGUAGGACCCCAGCCCCU	-0.211
CACAGACAACACGCACCCACACAGACACAGAGGGAAGGGGUUGGGAUGGGGACAGGGUGCACAGCAGGGCGGGGUAGGACCCCAGCCUCU	-0.323
